Measurements of several laboratories.
Compare with care: the assays were run in different laboratories.
TMPRSS2: Transmembrane protease serine 2 (TMPRSS2, Homo sapiens, UniProt O15393)
Chain of UniProt O15393 (whole entry, looked up): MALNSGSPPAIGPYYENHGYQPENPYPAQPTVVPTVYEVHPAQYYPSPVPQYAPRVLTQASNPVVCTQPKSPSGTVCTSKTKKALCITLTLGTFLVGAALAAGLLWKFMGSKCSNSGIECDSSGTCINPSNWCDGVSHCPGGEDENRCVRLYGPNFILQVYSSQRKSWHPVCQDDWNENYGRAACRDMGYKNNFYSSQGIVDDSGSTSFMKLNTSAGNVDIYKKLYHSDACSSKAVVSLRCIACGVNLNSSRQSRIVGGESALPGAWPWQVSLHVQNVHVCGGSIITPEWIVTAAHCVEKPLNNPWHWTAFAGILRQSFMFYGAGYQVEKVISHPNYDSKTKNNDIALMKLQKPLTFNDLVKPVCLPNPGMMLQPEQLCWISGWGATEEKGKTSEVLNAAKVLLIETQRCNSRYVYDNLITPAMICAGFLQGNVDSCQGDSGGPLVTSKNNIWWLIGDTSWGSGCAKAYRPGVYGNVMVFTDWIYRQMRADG
PFF0160c E182D: Dihydroorotate dehydrogenase (quinone), mitochondrial (PFF0160c, Plasmodium falciparum, UniProt Q08210, E182D)
CTSL: Procathepsin L (CTSL, Homo sapiens, UniProt P07711)
Chain of UniProt P07711 (whole entry, looked up): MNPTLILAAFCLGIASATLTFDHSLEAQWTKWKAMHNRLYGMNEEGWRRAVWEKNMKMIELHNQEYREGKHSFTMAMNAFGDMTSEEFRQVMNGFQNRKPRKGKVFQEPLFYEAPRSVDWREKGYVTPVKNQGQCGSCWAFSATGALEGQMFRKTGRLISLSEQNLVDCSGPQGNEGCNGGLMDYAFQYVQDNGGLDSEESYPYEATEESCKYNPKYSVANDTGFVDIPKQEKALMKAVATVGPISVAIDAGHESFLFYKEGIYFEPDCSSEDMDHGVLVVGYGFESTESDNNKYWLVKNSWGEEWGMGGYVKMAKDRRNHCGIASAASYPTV
Chain of UniProt Q9H930 (whole entry, unmodified, looked up): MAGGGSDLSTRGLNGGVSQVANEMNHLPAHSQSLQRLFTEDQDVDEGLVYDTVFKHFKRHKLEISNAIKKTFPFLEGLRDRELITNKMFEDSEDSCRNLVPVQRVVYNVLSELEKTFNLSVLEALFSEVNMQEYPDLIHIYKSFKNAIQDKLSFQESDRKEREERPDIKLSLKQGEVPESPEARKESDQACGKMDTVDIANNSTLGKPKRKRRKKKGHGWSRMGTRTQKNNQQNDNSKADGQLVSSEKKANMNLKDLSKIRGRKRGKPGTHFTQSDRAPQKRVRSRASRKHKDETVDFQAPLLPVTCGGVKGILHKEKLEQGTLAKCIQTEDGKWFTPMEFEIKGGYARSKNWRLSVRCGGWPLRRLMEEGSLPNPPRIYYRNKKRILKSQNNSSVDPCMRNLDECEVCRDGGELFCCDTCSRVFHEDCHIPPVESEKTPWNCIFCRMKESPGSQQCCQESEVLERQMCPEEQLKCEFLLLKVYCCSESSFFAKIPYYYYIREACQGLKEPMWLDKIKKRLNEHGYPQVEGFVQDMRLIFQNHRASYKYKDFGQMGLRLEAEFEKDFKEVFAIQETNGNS
Chain of UniProt P45985 (whole entry, looked up): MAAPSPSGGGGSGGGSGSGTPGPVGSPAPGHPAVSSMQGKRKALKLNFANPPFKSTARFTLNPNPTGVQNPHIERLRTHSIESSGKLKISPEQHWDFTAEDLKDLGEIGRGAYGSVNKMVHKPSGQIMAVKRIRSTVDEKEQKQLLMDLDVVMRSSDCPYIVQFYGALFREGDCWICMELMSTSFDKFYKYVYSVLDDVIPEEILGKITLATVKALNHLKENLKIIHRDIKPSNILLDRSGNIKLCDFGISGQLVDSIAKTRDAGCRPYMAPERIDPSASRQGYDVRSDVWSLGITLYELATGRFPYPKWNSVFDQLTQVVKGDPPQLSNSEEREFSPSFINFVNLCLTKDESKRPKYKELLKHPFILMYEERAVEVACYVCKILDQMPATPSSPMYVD
Chain of UniProt Q9UEE5 (whole entry, looked up): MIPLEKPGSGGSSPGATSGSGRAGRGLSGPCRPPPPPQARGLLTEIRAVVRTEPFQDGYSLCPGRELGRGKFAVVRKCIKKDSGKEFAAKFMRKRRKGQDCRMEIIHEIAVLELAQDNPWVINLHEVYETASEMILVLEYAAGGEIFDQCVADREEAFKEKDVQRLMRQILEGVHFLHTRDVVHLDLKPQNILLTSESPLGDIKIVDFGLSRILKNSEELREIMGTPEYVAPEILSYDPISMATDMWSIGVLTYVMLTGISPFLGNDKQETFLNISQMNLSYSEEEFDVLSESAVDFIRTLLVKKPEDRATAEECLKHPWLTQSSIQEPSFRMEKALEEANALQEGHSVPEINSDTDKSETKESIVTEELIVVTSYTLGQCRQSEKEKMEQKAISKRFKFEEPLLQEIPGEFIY
Chain of UniProt P22303 (whole entry, looked up): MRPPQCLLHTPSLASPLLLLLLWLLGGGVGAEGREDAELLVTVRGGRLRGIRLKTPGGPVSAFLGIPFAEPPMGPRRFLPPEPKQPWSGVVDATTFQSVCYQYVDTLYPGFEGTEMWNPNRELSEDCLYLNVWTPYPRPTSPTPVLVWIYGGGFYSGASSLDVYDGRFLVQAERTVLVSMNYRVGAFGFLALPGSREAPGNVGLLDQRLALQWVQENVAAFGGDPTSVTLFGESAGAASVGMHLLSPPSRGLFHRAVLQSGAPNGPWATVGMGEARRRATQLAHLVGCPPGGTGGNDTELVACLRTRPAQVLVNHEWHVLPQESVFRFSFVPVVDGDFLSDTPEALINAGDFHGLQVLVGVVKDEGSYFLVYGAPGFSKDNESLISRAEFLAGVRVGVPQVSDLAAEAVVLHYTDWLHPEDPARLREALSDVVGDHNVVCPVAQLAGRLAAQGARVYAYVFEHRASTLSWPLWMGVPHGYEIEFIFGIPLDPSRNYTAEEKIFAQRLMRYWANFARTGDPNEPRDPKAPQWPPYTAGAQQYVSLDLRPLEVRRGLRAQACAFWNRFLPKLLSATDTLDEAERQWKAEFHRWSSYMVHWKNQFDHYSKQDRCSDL
Chain of UniProt Q9UM73 (whole entry, looked up): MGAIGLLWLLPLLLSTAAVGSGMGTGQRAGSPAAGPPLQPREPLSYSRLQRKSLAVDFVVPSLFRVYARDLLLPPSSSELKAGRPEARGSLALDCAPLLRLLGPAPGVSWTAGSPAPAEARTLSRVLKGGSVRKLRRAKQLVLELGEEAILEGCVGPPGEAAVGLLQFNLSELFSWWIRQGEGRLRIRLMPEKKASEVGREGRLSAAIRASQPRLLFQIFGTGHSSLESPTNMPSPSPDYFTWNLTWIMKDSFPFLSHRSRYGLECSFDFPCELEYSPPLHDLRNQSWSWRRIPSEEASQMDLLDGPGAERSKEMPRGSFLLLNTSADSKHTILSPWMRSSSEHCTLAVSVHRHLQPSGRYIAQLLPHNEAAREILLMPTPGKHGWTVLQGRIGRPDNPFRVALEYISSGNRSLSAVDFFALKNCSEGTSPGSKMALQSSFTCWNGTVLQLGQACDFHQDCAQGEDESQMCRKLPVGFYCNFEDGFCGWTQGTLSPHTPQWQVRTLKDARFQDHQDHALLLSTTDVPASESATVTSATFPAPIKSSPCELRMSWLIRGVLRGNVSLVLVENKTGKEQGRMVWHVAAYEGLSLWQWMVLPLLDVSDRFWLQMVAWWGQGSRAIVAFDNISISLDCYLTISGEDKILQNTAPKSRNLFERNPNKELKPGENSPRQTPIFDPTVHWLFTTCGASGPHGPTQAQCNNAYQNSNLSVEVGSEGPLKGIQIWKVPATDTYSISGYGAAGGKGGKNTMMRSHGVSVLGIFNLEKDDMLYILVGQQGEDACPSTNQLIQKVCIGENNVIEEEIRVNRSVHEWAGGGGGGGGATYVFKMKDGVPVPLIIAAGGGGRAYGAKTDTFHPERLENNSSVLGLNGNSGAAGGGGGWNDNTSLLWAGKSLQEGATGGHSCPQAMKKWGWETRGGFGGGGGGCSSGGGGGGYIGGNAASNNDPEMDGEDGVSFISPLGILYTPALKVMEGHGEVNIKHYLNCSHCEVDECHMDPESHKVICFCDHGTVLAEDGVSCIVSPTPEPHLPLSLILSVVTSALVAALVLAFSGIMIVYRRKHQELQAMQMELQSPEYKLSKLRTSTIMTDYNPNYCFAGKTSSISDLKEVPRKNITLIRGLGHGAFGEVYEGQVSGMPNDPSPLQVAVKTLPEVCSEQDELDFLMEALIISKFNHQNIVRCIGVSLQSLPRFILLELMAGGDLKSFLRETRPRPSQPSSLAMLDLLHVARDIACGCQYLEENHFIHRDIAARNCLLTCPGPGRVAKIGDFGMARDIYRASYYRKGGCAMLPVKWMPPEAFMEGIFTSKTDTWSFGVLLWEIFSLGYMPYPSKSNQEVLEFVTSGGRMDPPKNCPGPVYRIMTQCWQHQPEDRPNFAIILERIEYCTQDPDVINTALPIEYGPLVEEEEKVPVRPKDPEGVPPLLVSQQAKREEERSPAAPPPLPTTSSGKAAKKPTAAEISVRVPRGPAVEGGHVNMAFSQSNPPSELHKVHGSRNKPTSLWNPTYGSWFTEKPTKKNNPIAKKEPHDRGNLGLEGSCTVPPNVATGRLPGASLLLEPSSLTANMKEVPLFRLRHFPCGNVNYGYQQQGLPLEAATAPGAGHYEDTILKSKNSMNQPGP
Chain of UniProt P21554 (whole entry, looked up): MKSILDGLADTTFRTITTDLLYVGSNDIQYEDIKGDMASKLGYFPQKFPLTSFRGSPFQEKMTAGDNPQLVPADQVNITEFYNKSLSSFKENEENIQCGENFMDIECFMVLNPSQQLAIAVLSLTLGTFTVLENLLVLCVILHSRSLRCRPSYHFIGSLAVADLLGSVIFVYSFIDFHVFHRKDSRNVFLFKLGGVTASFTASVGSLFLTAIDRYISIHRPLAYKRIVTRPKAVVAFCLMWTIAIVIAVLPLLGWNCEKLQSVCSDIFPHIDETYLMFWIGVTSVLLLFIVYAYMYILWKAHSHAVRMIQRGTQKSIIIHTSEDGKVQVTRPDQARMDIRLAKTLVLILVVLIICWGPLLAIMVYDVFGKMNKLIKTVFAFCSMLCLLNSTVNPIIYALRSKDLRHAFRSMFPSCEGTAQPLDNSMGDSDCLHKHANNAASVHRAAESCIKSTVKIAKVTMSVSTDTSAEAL

SMILES	target or system	assay	test system	conditions	quantity	value
N=C(N)NCCCCC(=O)N[C@@H](CCC(N)=O)C(=O)N[C@@H](Cc1ccc(OCc2ccccc2)cc1)C(=O)N[C@@H](CCCNC(=N)N)C(=O)c1nc2ccccc2s1	TMPRSS2	enzyme activity, inhibitor	–	1 nM	activity vs control	82%
Nc1ncc(-c2nc(N3CCOCC3)nc(N3CCOCC3)n2)c(C(F)F)n1	ALK (Homo sapiens, UniProt Q9UM73)	cell-free assay, competition with immobilised ligand	–	10 µM	remaining binding	26%
CC(=O)N[C@@H](CCCNC(=N)N)C(=O)N[C@@H](CCC(N)=O)C(=O)N[C@@H](Cc1ccccc1)C(=O)N[C@H](CCCNC(=N)N)C(=O)c1nccs1	TMPRSS2	enzyme activity, inhibitor	–	1 nM	activity vs control	41%
C#Cc1n[nH]c2c(-c3cn(C(C)c4ccccn4)c(=O)[nH]c3=O)cc(F)cc12 (stereo not shown)	STK17A (Homo sapiens, UniProt Q9UEE5)	enzyme activity, inhibitor	–	1 µM	inhibition	9.1%
OC[C@H]1CNCCN1C[C@@H]1CCCN1C[C@H](CC1CCCCC1)N1CCN(CCC23CC4CC(CC(C4)C2)C3)[C@H](Cc2ccc(O)cc2)C1	OPRK1 (Cavia porcellus, UniProt P41144)	ligand displacement, radioligand	–	0.5 µM, pH 7.5	remaining binding	103%
CC(C)[C@H](NC(=O)[C@H](CCc1ccccc1)NC(=O)CCc1ccccc1)C(=O)N[C@@H](CCCNC(=N)N)C(=O)c1nc2ccccc2s1	TMPRSS2	enzyme activity, inhibitor	–	1 nM	activity vs control	71%
Cc1nn(C)cc1-c1nc2c(N3CCN(Cc4ccc(Cl)cc4)CC3)c(Cl)cnc2[nH]1	KIT (Homo sapiens, UniProt P10721, A829P)	binding, competition with immobilised ligand	–	1 µM	remaining binding	64%
CC(C)[C@H](NC(=O)CCc1ccccc1)C(=O)N[C@@H](CCCNC(=N)N)C(=O)c1nc2ccccc2s1	TMPRSS2	enzyme activity, inhibitor	–	1 nM	activity vs control	106%
c1cncc([C@@H]2CCCN2)c1	CHRM2 (Homo sapiens, UniProt P08172)	ligand displacement	–	50 µM	inhibition	19.8%
[2H]c1c([2H])c([C@]2([2H])CCCN2C(=O)C(C)(C)Oc2ccc3cn[nH]c3c2)c([2H])c([2H])c1C([2H])([2H])[2H]	MAP2K4 (Homo sapiens, UniProt P45985)	binding, competition with immobilised ligand	–	1 µM	remaining binding	100%
CCN(CC)CCCC[C@H](NC(=O)[C@H](CC(C)C)NC(=O)[C@H](C)NC(=O)[C@H](Cc1ccccc1)NC(=O)c1ccc(C(C)(C)C)cc1)C(=O)N[C@@H](CO)C(=O)OC	SP140L (Homo sapiens, UniProt Q9H930)	thermal stability, DSF	–	25 µM	ΔTm	0.53 °C
COc1ncccc1-c1cnn2ccc(N3CCN(C(=O)OC(C)C)CC3)nc12	HUNK (Homo sapiens, UniProt P57058)	binding, competition with immobilised ligand	–	1 µM	remaining binding	56%
N=C(N)NCCCCC(=O)N[C@@H](CCC(N)=O)C(=O)N[C@@H](CC1CCCCC1)C(=O)N[C@@H](CCCNC(=N)N)C(=O)c1nc2ccccc2s1	TMPRSS2	enzyme activity, inhibitor	–	1 nM	activity vs control	67%
COC(=O)c1cc(-c2cccc(NC(=O)Nc3ccc(F)cc3)c2)on1	Pseudomonas aeruginosa	microbial growth, broth dilution	ATCC27853	–	MIC	> 64 µg/mL
CC(C)[C@H](NC(=O)[C@H](Cc1cccc(Cl)c1)NC(=O)[C@@H](N)Cc1ccc(O)cc1)C(=O)N[C@H](CCCNC(=N)N)C(=O)c1nc2ccccc2s1	TMPRSS2	enzyme activity, inhibitor	–	1 nM	activity vs control	97%
CC(C)CC(=O)OC[C@H]1O[C@@](C#N)(c2ccc3c(N)ncnn23)[C@H](O)[C@@H]1O	HTR1A (Homo sapiens, UniProt P08908)	cell-free assay	–	20 µM	inhibition	-6%
CCc1ccc(N2C(=O)/C(=C3/C(=O)N(C)c4ccc(Cl)cc43)NC2=S)cc1	ACHE (Homo sapiens, UniProt P22303)	enzyme activity, inhibitor, Ellman	–	0.1 µM	inhibition	31%
COc1ccccc1NC(=O)CSc1nc2cccnc2n1-c1ccccc1OC	PFF0160c E182D	enzyme activity, inhibitor, absorbance	–	–	IC50	2530 nM
CC1=CC(=O)c2c(O)cccc2C1=O	CTSL	enzyme activity, inhibitor	–	100 µM	remaining activity	8.58%
CCCCCn1c(O)c(N=NC(=O)c2ccccc2)c2ccccc21	CNR1 (Homo sapiens, UniProt P21554)	β-arrestin recruitment, agonist	HEK293	–	Emax	82.5%
COc1cnc(OC)n2nc(NS(=O)(=O)c3c(OCC(F)F)cccc3C(F)(F)F)nc12	L02	cell growth or viability, CCK-8	–	12.5 µM, 72 h	inhibition	0.77%
O=C(CSc1nnc(O)n1Cc1ccccc1)Nc1ccccc1-c1ccccc1	PFF0160c E182D	enzyme activity, inhibitor, absorbance	–	–	IC50	473 nM
N.N.[Cl][Pt][Cl]	KARPAS-299	cell growth or viability, ATP luminescence	–	10 µM, 72 h	inhibition	100%
N#CCc1c[nH]c2ccccc12	CTSL	enzyme activity, inhibitor	–	100 µM	remaining activity	121%
COC(=O)c1cc(-c2cccc(NC(=O)Nc3cccc(C(F)(F)F)c3)c2)on1	Pseudomonas aeruginosa	microbial growth, broth dilution	ATCC27853	–	MIC	> 64 µg/mL

Repeated from above:
SMILES	target or system	assay	test system	conditions	quantity	value
CC(C)CC(=O)OC[C@H]1O[C@@](C#N)(c2ccc3c(N)ncnn23)[C@H](O)[C@@H]1O	HTR1A (Homo sapiens, UniProt P08908)	cell-free assay	–	20 µM	inhibition	-6%
[2H]c1c([2H])c([C@]2([2H])CCCN2C(=O)C(C)(C)Oc2ccc3cn[nH]c3c2)c([2H])c([2H])c1C([2H])([2H])[2H]	MAP2K4 (Homo sapiens, UniProt P45985)	binding, competition with immobilised ligand	–	1 µM	remaining binding	100%
CC(C)[C@H](NC(=O)CCc1ccccc1)C(=O)N[C@@H](CCCNC(=N)N)C(=O)c1nc2ccccc2s1	TMPRSS2	enzyme activity, inhibitor	–	1 nM	activity vs control	106%
N#CCc1c[nH]c2ccccc12	CTSL	enzyme activity, inhibitor	–	100 µM	remaining activity	121%
